Experimental data gathered from unrelated publications.
A part holds a random share of what one study measured.
Chain of UniProt P08581 (whole entry, looked up): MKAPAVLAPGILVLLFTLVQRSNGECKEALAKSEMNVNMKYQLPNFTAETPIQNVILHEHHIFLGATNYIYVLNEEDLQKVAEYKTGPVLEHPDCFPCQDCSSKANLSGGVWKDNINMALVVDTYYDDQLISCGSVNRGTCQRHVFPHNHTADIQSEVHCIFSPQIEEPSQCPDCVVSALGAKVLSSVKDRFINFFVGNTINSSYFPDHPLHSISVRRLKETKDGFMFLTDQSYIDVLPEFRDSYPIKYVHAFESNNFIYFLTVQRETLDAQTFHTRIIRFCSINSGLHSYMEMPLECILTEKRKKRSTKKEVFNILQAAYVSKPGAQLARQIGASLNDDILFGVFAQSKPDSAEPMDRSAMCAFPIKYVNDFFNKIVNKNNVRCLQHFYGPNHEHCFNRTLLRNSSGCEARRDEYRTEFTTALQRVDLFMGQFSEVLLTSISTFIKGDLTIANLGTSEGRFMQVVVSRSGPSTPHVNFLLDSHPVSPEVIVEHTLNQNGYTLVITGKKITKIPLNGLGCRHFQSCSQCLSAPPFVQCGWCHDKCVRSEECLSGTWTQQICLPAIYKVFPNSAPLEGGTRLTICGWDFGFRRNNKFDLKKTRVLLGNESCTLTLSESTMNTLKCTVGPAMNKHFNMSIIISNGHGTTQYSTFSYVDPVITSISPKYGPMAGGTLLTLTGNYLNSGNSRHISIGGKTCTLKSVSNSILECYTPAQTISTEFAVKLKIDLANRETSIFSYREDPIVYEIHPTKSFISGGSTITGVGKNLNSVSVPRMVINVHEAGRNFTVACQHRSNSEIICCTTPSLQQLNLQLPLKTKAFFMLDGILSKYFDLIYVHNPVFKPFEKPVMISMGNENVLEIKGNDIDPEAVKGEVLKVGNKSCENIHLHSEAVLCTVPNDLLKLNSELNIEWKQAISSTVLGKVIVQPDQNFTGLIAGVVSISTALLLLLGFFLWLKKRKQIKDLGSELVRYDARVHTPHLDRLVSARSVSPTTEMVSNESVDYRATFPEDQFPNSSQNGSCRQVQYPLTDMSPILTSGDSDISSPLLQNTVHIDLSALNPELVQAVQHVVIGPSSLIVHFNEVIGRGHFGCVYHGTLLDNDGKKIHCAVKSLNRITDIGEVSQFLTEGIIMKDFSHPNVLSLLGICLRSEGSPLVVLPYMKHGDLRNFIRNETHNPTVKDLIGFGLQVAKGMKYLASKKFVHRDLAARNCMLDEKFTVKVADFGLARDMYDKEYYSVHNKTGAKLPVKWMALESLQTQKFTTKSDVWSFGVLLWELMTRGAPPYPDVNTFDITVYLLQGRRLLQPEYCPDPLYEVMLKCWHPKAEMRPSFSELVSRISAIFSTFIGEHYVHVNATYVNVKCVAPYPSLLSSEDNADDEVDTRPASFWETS
Chain of UniProt Q96L34 (whole entry, looked up): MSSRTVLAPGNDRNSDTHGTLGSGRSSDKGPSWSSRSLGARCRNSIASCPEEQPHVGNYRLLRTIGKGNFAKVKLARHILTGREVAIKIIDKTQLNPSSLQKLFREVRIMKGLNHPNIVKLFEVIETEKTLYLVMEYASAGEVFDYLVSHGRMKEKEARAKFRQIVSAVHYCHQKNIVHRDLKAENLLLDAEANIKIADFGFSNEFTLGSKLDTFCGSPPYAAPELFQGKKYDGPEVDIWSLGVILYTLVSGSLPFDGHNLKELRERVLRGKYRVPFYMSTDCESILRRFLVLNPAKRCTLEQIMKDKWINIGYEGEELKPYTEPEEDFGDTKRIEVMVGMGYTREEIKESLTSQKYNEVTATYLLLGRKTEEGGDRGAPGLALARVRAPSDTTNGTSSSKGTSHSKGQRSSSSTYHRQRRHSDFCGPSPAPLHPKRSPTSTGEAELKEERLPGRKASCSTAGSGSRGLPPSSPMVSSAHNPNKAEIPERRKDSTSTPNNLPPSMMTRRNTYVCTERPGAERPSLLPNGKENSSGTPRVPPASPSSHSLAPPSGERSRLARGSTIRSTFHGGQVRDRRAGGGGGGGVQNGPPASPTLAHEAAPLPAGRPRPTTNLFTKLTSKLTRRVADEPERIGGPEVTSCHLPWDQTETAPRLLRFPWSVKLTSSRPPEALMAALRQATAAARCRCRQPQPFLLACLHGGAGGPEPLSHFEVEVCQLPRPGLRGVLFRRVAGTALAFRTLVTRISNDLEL
Chain of UniProt Q7KZI7 (whole entry, looked up): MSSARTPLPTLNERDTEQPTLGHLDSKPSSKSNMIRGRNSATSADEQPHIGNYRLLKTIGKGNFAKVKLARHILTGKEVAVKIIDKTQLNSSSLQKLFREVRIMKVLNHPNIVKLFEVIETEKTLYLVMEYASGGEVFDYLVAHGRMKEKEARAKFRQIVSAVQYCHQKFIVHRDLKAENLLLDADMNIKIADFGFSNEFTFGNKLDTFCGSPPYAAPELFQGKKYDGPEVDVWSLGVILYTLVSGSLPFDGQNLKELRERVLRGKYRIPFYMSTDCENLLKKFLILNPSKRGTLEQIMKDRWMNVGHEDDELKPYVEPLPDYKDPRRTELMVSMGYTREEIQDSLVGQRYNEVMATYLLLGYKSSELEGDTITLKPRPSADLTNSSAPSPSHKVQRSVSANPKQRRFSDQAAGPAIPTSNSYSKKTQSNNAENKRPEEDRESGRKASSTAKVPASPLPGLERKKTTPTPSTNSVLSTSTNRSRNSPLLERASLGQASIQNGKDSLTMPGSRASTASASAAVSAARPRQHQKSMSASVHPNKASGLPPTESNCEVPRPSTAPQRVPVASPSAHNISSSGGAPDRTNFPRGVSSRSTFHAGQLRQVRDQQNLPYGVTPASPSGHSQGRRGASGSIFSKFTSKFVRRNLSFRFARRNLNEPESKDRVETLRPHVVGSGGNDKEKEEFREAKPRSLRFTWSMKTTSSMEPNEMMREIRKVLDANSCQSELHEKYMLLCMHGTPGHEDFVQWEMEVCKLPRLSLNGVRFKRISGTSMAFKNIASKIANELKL
Chain of UniProt Q16539 (whole entry, looked up): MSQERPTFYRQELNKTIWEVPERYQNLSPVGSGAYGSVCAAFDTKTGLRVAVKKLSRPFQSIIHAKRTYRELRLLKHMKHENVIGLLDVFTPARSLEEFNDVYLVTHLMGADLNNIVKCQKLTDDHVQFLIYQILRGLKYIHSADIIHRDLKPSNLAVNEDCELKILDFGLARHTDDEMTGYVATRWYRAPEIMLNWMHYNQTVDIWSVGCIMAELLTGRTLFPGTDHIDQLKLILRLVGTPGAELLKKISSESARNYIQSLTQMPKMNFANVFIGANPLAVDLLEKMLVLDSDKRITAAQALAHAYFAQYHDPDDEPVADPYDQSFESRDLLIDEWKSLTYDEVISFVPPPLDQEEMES
Chain of UniProt Q02750 (whole entry, looked up): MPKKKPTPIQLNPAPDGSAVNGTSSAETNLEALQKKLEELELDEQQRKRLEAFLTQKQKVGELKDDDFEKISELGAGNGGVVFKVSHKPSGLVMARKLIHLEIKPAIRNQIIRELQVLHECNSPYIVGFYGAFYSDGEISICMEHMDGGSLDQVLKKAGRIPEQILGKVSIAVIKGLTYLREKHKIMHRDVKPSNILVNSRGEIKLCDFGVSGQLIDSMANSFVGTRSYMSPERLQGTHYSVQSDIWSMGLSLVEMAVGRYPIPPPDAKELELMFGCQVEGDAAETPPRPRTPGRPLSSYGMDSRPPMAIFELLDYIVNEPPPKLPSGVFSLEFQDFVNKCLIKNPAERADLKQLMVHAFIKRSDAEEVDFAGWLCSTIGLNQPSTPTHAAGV
Chain of UniProt P48729 (whole entry, looked up): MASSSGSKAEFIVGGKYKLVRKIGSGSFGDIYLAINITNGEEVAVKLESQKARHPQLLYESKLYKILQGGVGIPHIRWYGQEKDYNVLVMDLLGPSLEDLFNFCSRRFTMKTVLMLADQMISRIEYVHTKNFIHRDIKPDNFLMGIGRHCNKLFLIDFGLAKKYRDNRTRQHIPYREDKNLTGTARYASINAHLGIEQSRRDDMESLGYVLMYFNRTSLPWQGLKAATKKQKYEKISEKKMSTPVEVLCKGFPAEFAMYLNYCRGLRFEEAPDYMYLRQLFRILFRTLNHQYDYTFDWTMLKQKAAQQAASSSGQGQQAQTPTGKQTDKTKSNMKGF
Chain of UniProt P32298 (whole entry, looked up): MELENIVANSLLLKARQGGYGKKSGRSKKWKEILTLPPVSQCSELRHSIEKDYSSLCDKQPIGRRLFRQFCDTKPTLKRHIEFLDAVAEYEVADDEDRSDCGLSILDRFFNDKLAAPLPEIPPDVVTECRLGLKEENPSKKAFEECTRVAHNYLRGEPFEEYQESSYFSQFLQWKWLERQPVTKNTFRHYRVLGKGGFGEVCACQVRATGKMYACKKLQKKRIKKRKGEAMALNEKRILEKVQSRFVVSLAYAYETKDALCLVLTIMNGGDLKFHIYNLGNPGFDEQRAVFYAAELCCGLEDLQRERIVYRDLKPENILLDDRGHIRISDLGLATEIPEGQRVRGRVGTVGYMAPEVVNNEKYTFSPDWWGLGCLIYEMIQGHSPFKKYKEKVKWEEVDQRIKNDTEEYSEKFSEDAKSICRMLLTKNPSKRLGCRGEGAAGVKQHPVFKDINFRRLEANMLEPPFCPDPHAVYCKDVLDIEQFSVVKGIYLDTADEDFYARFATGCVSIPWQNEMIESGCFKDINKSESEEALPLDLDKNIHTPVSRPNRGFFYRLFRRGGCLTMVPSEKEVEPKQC
Chain of UniProt P0C264 (whole entry, looked up): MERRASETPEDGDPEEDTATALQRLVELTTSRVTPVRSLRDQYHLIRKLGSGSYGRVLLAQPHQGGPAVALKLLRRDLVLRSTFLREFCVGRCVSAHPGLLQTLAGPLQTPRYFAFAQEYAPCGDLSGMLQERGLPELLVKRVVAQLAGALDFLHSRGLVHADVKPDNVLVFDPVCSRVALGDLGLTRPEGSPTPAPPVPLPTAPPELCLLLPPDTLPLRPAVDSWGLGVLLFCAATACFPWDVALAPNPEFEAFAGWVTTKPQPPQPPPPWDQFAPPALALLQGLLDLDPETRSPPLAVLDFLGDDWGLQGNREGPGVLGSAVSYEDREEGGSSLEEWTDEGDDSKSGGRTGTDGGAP

Study 1 — cell line: A-375; tested at: 100 µM; time: 36 h
Compound | viability
CN(C/C=C/C#CC(C)(C)C)Cc1cccc2ccccc12 | 22.8%
C[C@@H](c1nc(-c2ccc(C#N)cc2)cs1)[C@](O)(Cn1cncn1)c1cc(F)ccc1F | 21.8%
Cc1c(C(=O)Nc2ccc(N3C[C@@H](C)O[C@@H](C)C3)nc2)cccc1-c1ccc(OC(F)(F)F)cc1 | 2.95%
N[C@@H](CSCCCO)C(=O)O | 96.7%
O=C(O)CCCNC(=O)c1cccnc1 | 103%

Study 2 — Structure (SMILES): Cc1ccc(NC2=CC(=O)c3sc(C)nc3C2=O)cc1; read-out: enzyme activity; mode: inhibitor; tested at: 0.5 µM; baseline: control
target | remaining activity [%]
MAPK14 (Homo sapiens, UniProt Q16539) | 92.4
CLK4 (Homo sapiens, UniProt Q9HAZ1) | 99.1
PAK3 (Homo sapiens, UniProt O75914) | 97.5
GRK4 (Homo sapiens, UniProt P32298) | 93.1
MARK4 (Homo sapiens, UniProt Q96L34) | 102
CAMK4 (Homo sapiens, UniProt Q16566) | 98.5
ROCK1 (Homo sapiens, UniProt Q13464) | 100
MAP2K1 (Homo sapiens, UniProt Q02750) | 96.1
CLK3 (Homo sapiens, UniProt P49761) | 98.6
MARK2 (Homo sapiens, UniProt Q7KZI7) | 91.1
Cyclin-dependent kinase 9, with cyclin K (CDK9, Homo sapiens, UniProt P50750) | 84.4
PRKG2 (Homo sapiens, UniProt Q13237) | 60.8
MET (Homo sapiens, UniProt P08581) | 99.7

Study 3 — read-out: cell-free assay; technique: competition with immobilised ligand; tested at: 1 µM
SMILES: O=C1CCc2cc(Nc3cc(OC4CCOCC4)c([N+](=O)[O-])cc3Cl)ccc2N1
target | remaining binding
CSNK1A1 (Homo sapiens, UniProt P48729) | 100%
YES1 (Homo sapiens, UniProt P07947) | 96%
STK38 (Homo sapiens, UniProt Q15208) | 88%
Ribosomal protein S6 kinase alpha-4, C-terminal kinase domain (RPS6KA4, Homo sapiens, UniProt O75676) | 72%
PRKG1 (Homo sapiens, UniProt Q13976) | 89%
MET (Homo sapiens, UniProt P08581) | 80%
STK3 (Homo sapiens, UniProt Q13188) | 100%
SBK3 (Homo sapiens, UniProt P0C264) | 100%

Other studies, line by line
SMILES | system | conditions | measurement | value
CC(C)n1cnc(-c2ccc(F)cc2)c1-c1ncc(C(=O)Nc2ccc(N3CCN(C)CC3)cc2)[nH]1 | human, idiopathic pulmonary fibrosis | 60 mg once daily, trial, treatment-emergent | patients with blurred vision | 0%

A few entries again (study 2):
target | remaining activity [%]
CLK4 (Homo sapiens, UniProt Q9HAZ1) | 99.1
PAK3 (Homo sapiens, UniProt O75914) | 97.5
GRK4 (Homo sapiens, UniProt P32298) | 93.1
